Measurements collected from several papers.
Every numbered part comes from another study and shows a few of its results, in no order. Substitutions count along the parent as printed.

Block 1
Target: Cyclic AMP-responsive element-binding protein 1 (CREB1, Homo sapiens, UniProt P16220, residues 1-327, full length assumed)
UniProt P16220, sequence (whole entry, looked up): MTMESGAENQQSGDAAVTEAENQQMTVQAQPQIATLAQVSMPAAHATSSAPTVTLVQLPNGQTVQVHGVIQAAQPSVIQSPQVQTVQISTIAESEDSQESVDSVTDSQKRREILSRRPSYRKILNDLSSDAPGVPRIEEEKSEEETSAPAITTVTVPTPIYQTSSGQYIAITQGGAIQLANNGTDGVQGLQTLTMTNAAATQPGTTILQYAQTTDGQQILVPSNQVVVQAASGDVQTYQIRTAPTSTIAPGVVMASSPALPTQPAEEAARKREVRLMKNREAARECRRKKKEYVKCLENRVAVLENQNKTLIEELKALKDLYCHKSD
Technique: protein-binding microarray
Form: double-stranded DNA, one strand shown
Medium: in vitro
Concentration: not given
Notes: k-mer, scored over probes, only values ≥0.25
Reading: higher = stronger binding
| Strand | E-score |
| --- | --- |
| ATTATTA | 0.256 |
| ATTTTCA | 0.252 |
| AACGTCA | 0.474 |
| ATGACGC | 0.484 |
| CACGTGA | 0.279 |
| GGCGTCA | 0.349 |
| AACGTGA | 0.275 |
| ATACACA | 0.273 |
| GTGACGA | 0.438 |
| AAAAAGC | 0.271 |
| CGACGTA | 0.346 |
| ATATTCA | 0.253 |
| GACGACA | 0.256 |
| ACGTGAC | 0.331 |
| AACGTAT | 0.29 |
| GCGTCAA | 0.267 |
| AATGACG | 0.477 |
| AATATAC | 0.334 |
| ACGTCAC | 0.498 |
| AATACGT | 0.324 |

Block 2
Target: ABI1, truncated, D143A, DHFR fusion (Arabidopsis thaliana)
Technique: DHFR PCA, deep sequencing
Medium: yeast
Notes: methotrexate growth selection, single substitutions
With: (+)-ABA 0.0091 µM
Reference: wild-type fitted maximum
Reading: higher = stronger binding
Parent: PYL1, truncated, DHFR fusion (Arabidopsis thaliana); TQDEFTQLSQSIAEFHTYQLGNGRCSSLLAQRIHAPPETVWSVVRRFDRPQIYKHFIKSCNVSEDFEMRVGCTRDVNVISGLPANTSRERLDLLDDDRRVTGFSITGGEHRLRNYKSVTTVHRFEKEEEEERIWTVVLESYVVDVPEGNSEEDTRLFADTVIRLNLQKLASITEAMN
| Variant | relative binding score [%] |
| --- | --- |
| F5H | 4.06 |
| E89R | -0.21 |
| E89P | 2.46 |
| R132A | 51.9 |
| E151W | 6.42 |
| G71P | -6.99 |
| D3F | 38.4 |
| Q7P | 4.39 |
| Q2T | 19.4 |
| T1N | 26.1 |
| L164P | -5.27 |
| T106V | 74 |
| P36I | 1.81 |
| I57Q | -5.04 |
| E4S | 3.06 |
| R98C | -1.23 |

Block 3
Target: Histone acetyltransferase KAT6A, winged helix 1, GST fusion (KAT6A, Homo sapiens, UniProt Q92794, residues 1-85)
Technique: protein binding microarray
Form: double-stranded DNA, one strand shown
Medium: in vitro
Concentration: not given
Notes: 8-mer, flanks averaged, mean of 2 arrays, mostly near background
Reference: not given
Reading: higher = stronger binding
Target sequence (chain): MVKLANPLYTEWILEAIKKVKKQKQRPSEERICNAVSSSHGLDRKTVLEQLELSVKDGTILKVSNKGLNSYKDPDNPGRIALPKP
| Strand | E-score |
| --- | --- |
| ACATAGAA | -0.212 |
| ATCGTTTG | -0.0872 |
| AGCGGAAT | 0.202 |
| CTAGATGA | -0.117 |
| GGTAGTGA | -0.0442 |
| GTCTGCAA | -0.17 |
| ATGTCTAA | -0.276 |
| TGGCGAAA | -0.0522 |
| AAACGGGA | 0.203 |
| GGGAAGCA | -0.0178 |
| AATAGGCG | 0.092 |
| AACACTAT | -0.0361 |
| AGTAACCC | -0.0889 |
| GGCTCGCA | 0.0443 |
| CAGAATTC | -0.238 |
| ATAGAGAA | -0.182 |
| ATACATCC | -0.00176 |
| GTGCGTCA | 0.102 |
| CAAAATAA | -0.217 |
| ATCGAAGA | -0.0206 |
| AGGAGGGA | -0.235 |
| AATGGTAA | -0.199 |
| ATGCGGCG | 0.413 |
| ACCAGTTG | -0.231 |
| CTATTGTA | 0.0537 |

Block 4
Target: Sal-like protein 4, full length isoform B (SALL4, Homo sapiens, UniProt Q9UJQ4-2, residues 1-616)
Technique: universal PBM
Form: double-stranded DNA, one strand shown
Medium: in vitro
Concentration: not given
Notes: 8-mer, flanks averaged, mean of replicates
Reading: higher = stronger binding
Construct (chain): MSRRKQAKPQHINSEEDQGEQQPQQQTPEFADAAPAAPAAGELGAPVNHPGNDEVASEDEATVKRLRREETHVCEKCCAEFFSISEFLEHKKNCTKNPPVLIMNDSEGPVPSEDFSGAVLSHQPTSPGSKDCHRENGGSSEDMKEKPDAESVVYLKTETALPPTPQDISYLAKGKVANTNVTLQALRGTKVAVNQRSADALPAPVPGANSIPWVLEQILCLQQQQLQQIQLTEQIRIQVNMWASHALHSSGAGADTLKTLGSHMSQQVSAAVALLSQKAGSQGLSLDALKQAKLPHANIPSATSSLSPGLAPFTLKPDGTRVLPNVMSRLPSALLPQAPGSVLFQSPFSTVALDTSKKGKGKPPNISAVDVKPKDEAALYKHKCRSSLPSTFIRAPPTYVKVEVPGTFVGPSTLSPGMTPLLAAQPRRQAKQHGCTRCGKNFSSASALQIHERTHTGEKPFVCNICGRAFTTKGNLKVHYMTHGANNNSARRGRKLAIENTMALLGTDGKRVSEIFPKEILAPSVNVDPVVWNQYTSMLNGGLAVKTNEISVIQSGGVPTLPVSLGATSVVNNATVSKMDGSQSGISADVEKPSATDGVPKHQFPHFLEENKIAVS
| Strand | E-score |
| --- | --- |
| ACCTGGTC | -0.24 |
| CCCTAGAA | 0.0344 |
| CATGGCGC | -0.125 |
| CCGATGTA | -0.0765 |
| GTCAGTTA | 0.072 |
| CGTTAAAC | 0.0864 |
| CCTGAGAG | -0.229 |
| AGGTCAGG | -0.346 |
| CTAACAAA | 0.248 |
| ACATGGAG | -0.0805 |
| GATCTGCC | -0.149 |
| AGACGTGG | -0.0282 |
| GGCTCTTA | -0.0215 |
| GCCCAGCA | -0.304 |
| TCTGGGCA | -0.25 |
| CCCCCAAC | -0.318 |
| ATGCATTC | 0.2 |

Block 5
Target: Ras GTPase-activating protein-binding protein 1, RRM domain (G3BP1, Homo sapiens, UniProt Q13283)
UniProt Q13283, sequence (whole entry, looked up): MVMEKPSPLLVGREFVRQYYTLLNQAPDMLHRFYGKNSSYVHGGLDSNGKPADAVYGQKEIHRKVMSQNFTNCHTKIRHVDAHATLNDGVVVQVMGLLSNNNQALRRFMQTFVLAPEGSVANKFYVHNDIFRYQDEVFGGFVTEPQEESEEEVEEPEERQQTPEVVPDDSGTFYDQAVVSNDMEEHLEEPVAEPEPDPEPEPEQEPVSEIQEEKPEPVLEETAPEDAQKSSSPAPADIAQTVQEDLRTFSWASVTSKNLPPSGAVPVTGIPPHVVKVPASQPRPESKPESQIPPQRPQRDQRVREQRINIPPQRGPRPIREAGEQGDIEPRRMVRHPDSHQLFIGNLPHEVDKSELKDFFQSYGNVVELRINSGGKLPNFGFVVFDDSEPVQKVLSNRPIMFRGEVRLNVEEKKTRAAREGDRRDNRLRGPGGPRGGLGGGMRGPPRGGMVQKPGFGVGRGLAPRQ
Technique: RNA Bind-n-Seq
Form: RNA
Medium: in vitro
Concentration: 1 µM
Notes: whole 134-nt RNA, ends assumed
With: 150 mM KCl
Reference: input library
Reading: higher = stronger binding
Shared flanks, not repeated: GGGAGUUCUACAGUCCGACGAUC … UGGAAUUCUCGGGUGUCAAGG
| Strand | log2 enrichment |
| --- | --- |
| AGUCCUGUGCUACACAUCGUAUGUACCGAAUCGGGUUUUGGGUUUUGGGGUUUUGGGGAAAGUAUUAUGUUACGCCGUUCGGAUCUGCAC | 0.44 |
| UGUGCUACACAUCGUAUGUACCGAAUCGGGGAAAAAAAGGGGAAAAAAAGGGGAAAAAAAGGGAAAGUAUUAUGUUACGCCGUUCGGAUC | 0.219 |
| GUCCUGUGCUACACAUCGUAUGUACCGAAUCGGAAAAAAAGGAAAAAAAGGAAAAAGGAAAGUAUUAUGUUACGCCGUUCGGAUCUGCAC | 0.0756 |
| UGUGCUACACAUCGUAUGUACCGAAUCGGGGUUUUUGGGGAAAAAAAGGGGAAAAAAAGGGGAAAGUAUUAUGUUACGCCGUUCGGAUCU | 1.2 |
| CACAGACAACACGCACCCACACAGACACAGAGGGAAGGGGUUGGGAUAAAGACAGGGUGCACAGCAGGGCGGGGUAGGACCCCAGCCCCU | 0.0605 |
| GUCCUGUGCUACACAUCGUAUGUACCGAAUCAAAUUUAAACCCCCCCAAACCCCCAAAAAAGUAUUAUGUUACGCCGUUCGGAUCUGCAC | -0.384 |
| UCCUGUGCUACACAUCGUAUGUACCGAAUCGGGAAAAAAAGGGAAAAAGGGUUUUUGGGAAAGUAUUAUGUUACGCCGUUCGGAUCUGCA | 0.1 |
| UCCUGUGCUACACAUCGUAUGUACCGAAUCGGGGAAAAAGGGGAAAAAGGAAAAAGGGGAAAGUAUUAUGUUACGCCGUUCGGAUCUGCA | -0.145 |
| UCAAGUCCUGUGCUACACAUCGUAUGUACCGAAUCGGGGUGGGGUGGGGAGGGGAAAGUAUUAUGUUACGCCGUUCGGAUCUGCACUUCC | 0.783 |
| UCCUGUGCUACACAUCGUAUGUACCGAAUCGGGGAAAGGGGAAAGGGGAAAAAAAGGGGAAAGUAUUAUGUUACGCCGUUCGGAUCUGCA | 0.623 |
| CAACGUUGAAAUGGAUUGGGUGUUGAAGCAUACUGGUCCAAAUAGUCCUGACACGGCCAAUGAUGGCUUUGUACGGCUUAGAGGACUUCC | -0.362 |
| GUCCUGUGCUACACAUCGUAUGUACCGAAUCGGGCCCCCGGGGCCCCCGGGCCCCCGGAAAGUAUUAUGUUACGCCGUUCGGAUCUGCAC | -0.685 |
| CACAGACAACACGCACCCACACAGACACAGAGGGAAGGGGUUGGGAUGGGGACAGGGUGCACAGCAGGGCGGGGUAGGACCCUAGCCCCU | -0.259 |
| CAAGUCCUGUGCUACACAUCGUAUGUACCGAAUCGGGGAAAGGAAAGGAAAGGGGAAAGUAUUAUGUUACGCCGUUCGGAUCUGCACUUC | -0.264 |

Block 6
Target: Centromere-binding protein 1, full length, His-tagged (CBF1, Saccharomyces cerevisiae, UniProt P17106, residues 1-351)
UniProt P17106, sequence (whole entry, looked up): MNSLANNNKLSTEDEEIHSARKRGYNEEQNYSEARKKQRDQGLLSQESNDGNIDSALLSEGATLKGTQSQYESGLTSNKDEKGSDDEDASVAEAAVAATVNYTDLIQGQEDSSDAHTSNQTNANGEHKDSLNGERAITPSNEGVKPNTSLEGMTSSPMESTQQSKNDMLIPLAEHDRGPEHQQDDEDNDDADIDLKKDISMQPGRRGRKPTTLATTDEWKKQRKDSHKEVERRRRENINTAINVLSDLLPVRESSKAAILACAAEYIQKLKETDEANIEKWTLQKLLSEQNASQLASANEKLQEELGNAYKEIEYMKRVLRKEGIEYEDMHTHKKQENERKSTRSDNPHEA
Technique: competition protein-binding microarray
Form: double-stranded DNA, one strand shown
Medium: in vitro
Concentration: 2 µM
Notes: whole 60-bp probe, lowest competitor level
With: Pho4 competitor, 0.05 µM
Reading: higher = stronger binding
Shared flanks, not repeated: … GTCTTGATTCGCTTGACGCTGCTG
| Strand | fluorescence intensity [a.u.] |
| --- | --- |
| ATGCCAAGTAAGGTTTTTCGGATTTAGGGTGGCGTC | 61 |
| TGCAATAAGAAAACACACGTTAAATTACACTCAGGG | 82.9 |
| AAAGCGGTAATTTTTCACGTGCAATCAAATATCTAT | 1740 |
| TATGTCCAATAGAGTCGCGTGCGATACAACTTCGTC | 95.8 |
| TGCGCAACAACTTGCAGCGTGGGTGTATGTCTAGAA | 62.7 |
| AAAGCGGTAATTTGTCACTCCACTTCACATATCTAT | 81.2 |
| CGGGGTTAAGTTTTTCACGTGTTATGCTTGCAGCAG | 1150 |
| TAGGAGACTAGTGGTTATGTGACGGTGCGAACCTAA | 60 |
| CTTCTGTAAATTTGTAAAGTGGGTGGACGCGCCCCG | 86.5 |
| ATTTCGCCCAGAGCGCACATGATCGGGTAGATAACC | 350 |
| CTTTCCCGATCTTGCAACGTGGGTGTAGCACATTTG | 77.3 |
| ACCCTCTTGGCCATTCGCGTGCGGATTGATTGCCGG | 55.7 |
| CCGGGTGATGCTTGACGCGTTTTTGGAAACGATGAG | 69.5 |
| AAGAAATTACCGTCGCTCGTGATGGGTTTGCAAAAA | 199 |
| TATTATTGATCGAGTCACGTTCTTCCAACGTTTCCG | 888 |
| CCGGAAAAACCTGTTCGCGTGAGCCGAACAACTTTC | 89.2 |
| CATACCCAACCTTGAATGGTGGGTGAAGATATTTGT | 68.5 |
| AATTGGTAAAACCATCACGTTTATGTTTTATTAAAA | 468 |
| CTTCTGTAAATTTGTCACTAGACTTGACGCGCCCCG | 93.9 |
| CGGTACCCCAACCGTCACAATAAGTACTTGCGCCAT | 60.3 |
| GGAGTAGACACACTACACGTGATGGCAGTAGGAGAG | 1520 |
| CATACCCAACCTTTTCACGTGCTTTAAGATATTTGT | 1630 |

For quick reference, copied from above (block 1):
| Strand | E-score |
| --- | --- |
| AAAAAGC | 0.271 |
| CGACGTA | 0.346 |
| ATATTCA | 0.253 |
| GACGACA | 0.256 |
| ACGTGAC | 0.331 |
| AACGTAT | 0.29 |
| GCGTCAA | 0.267 |
| AATGACG | 0.477 |
| AATATAC | 0.334 |
| ACGTCAC | 0.498 |
| AATACGT | 0.324 |
